Results gathered from unrelated publications.
Lines come from different studies, so protocols differ. ± gives the spread as reported.

C#CC1(NC(=O)C(CC(C)(C)F)NC(c2ccc(-c3ccc(S(C)(=O)=O)cc3)cc2)C(F)(F)F)CC1 (centres unmarked) — cysteine adduct formation (LC-MS UV trace; aqueous buffer; concentration not given, 23 h, pH 8.0, 37 °C, with: cysteine 10 mM): 0%
Oc1ccc2ccccc2c1/N=N/c1ccccc1 — measured concentration (rat whole blood QC samples; 16.0 µg/L, 4 h, room temperature, short-term stability): 15.9 µg/L
c1ccc(CN2CCOCCOCCN(CCCCCCCCN3CCOCCOCCN(CCCCCCCCN4CCOCCOCCN(Cc5ccccc5)CCOCCOCC4)CCOCCOCC3)CCOCCOCC2)cc1 — aggregate size (scanning electron microscopy; Escherichia coli cell surface; concentration not given, 5 min): 226 ± 9 nm
COc1cc(/C=C/C(=O)N2CCc3ccccc3C2)ccc1O[11CH3] — maximum brain uptake (PET-CT; mouse C57BL/6, male, whole brain; intravenous): 11.2 %ID/cc
NCCCC(=O)OCC(=O)c1ccc(O)c(C(F)(F)F)c1 — triplet lifetime (pump-probe transient absorption; 10% acetonitrile in water): 0.39 ns
COc1ccc([C@@H]2CC(=O)c3c(O)cc(O[C@@H]4O[C@H](CO[C@@H]5O[C@@H](C)[C@H](O)[C@@H](O)[C@H]5O)[C@@H](O)[C@H](O)[C@H]4O)cc3O2)cc1O — relative error (rat plasma; 0.48 ng/mL, 12 h, room temperature, autosampler stability; reference: nominal concentration): -3.14%
CC(C)(O)c1ncc([S@](N)(=O)=NC(=O)Nc2c3c(cc4c2CCC4)CCC3)s1 — AUC(0-t) (human, plasma; oral, 30 mg, single dose, fasted, healthy volunteers): 27700 ng·h/mL
C[C@]12C[C@H](c3ccc(S(C)(=N)=O)cc3)C3=C4CCC(=O)C=C4CC[C@H]3[C@@H]1CC[C@@]2(O)C(F)(F)C(F)(F)F (some centres unmarked) — maximal oral bioavailability (rat liver microsomes; 100 % absorption assumed): 69%
CCCC[C@H](NC(=O)CNC(=O)CNC(=O)CN1CCN(CC(=O)O)CCN(CC(=O)O)CCN(CC(=O)O)CC1)C(=O)N[C@H]1CC(=O)NCCCC[C@@H](C(N)=O)NC(=O)[C@H](Cc2c[nH]c3ccccc23)NC(=O)[C@H](CCCNC(=N)N)NC(=O)[C@@H](Cc2ccccc2)NC(=O)[C@H](Cc2c[nH]cn2)NC1=O [lead-203 labelled] — tissue uptake (C57 mouse, spleen; intravenous, 0.056 MBq, 24 h): 0.28 ± 0.11 %ID/g
CC/C=C\C/C=C\C/C=C\C/C=C\C/C=C\CCCCOC(CC)C(=O)O (centres unmarked) — tissue concentration (radioactivity, 14C-labelled; Wistar rat, male, liver; oral, 100 mg/kg, 1 h): 77.7 µg equivalents/g tissue
NS(=O)(=O)c1ccc(N2N=C(C(F)(F)F)CC2c2ccc(F)cc2F)cc1 (centres unmarked) — depletion rate (human liver microsomes; 20 µM, 0 to 30 min, pH 7.4): 233 pmol/min/mg
CC1=CC(C)(C)N=C2C=CC(=O)C=C12 — tissue residue (LC-MS/MS; piglets, kidney; oral in feed, 50 mg/kg feed ethoxyquin, 42 days): 3 ± 1.5 ng/g
CCCC[C@H](NC(=O)CN1CCC(NC(=O)CN2CCN(CC(=O)O)CCN(CC(=O)O)CCN(CC(=O)O)CC2)CC1)C(=O)N[C@H]1CC(=O)NCCCC[C@@H](C(N)=O)NC(=O)[C@H](Cc2c[nH]c3ccccc23)NC(=O)[C@H](CCCNC(=N)N)NC(=O)[C@@H](Cc2ccccc2)NC(=O)[C@H](Cc2c[nH]cn2)NC1=O — tumour to bone ratio (biodistribution; C57BL/6J mouse male tumour-bearing; 2 h post injection, unblocked; reference: tumour over bone): 39.6 ± 11.9
Cc1c(C(=O)Nc2ccn(C)n2)ncn1Cc1cccc(C(F)(F)F)c1 — concentration at time point (C57BL/6 mice, non-transgenic, liver; oral, drinking water, 15 mg/kg daily, 10 days): 344 ± 31.3 ng/g
C=C(C)c1ccc([C@H]2C[C@@]3(C)[C@@H](CC[C@@]3(O)C(F)(F)C(F)(F)F)[C@@H]3CCC4=CC(=O)CCC4=C32)cc1 — maximal oral bioavailability (rat liver microsomes; 100 % absorption assumed): 53%
COCC1CN(C2CCN(c3cc(OC)c(Nc4ncc(Br)c(Nc5ccc6c(c5P(C)(C)=O)OCCO6)n4)cc3C)CC2)C1 — patients with increased AST (human; oral, dose not given, sample A patients, any grade): 33.3%
CCCC[C@H](NC(=O)CNC(=O)CNC(=O)CN1CCN(CC(=O)O)CCN(CC(=O)O)CC1)C(=O)N[C@H]1CC(=O)NCCCC[C@@H](C(N)=O)NC(=O)[C@H](Cc2c[nH]c3ccccc23)NC(=O)[C@H](CCCNC(=N)N)NC(=O)[C@@H](Cc2ccccc2)NC(=O)[C@H](Cc2c[nH]cn2)NC1=O [copper-64 labelled] — uptake ratio (female C57 mouse, B16/F1 melanoma; intravenous, 0.037 MBq, 4 h; reference: tumour over muscle): 35.3
COc1cc(NC(C)=O)c2c(c1O)-c1c(OC)c(OC)cc3c1C(C2)N(C)CC3 (centres unmarked) — remaining compound (rat heart homogenate; 5 µg/mL, 24 h, room temperature, post-preparative storage): 111 ± 2%
CC(C)c1cnc(-c2cc(Cl)ccc2F)cc1Nc1ccncc1C(=O)NC(CO)CO — patients with treatment-related adverse event (monotherapy, refers to: myalgia; human patients; oral, dose not given, grade 2, phase I A): 2.4%
NC12CNCCNCC(NCc3ccc(CNC(=O)CCCC(=O)NCc4ccc(-c5nncnn5)cc4)cc3)(CNCCNC1)CNCCNC2.[64Cu+2] — mean absorbed dose (OLINDA dosimetry; breasts; pretargeting, 24-h interval): 0.0325 rad/mCi
Cn1c(=O)oc2ccc(-c3ccc(CC(C#N)NC(=O)C4CNCCCO4)c(F)c3)cc21 (centres unmarked) — subjects with TEAE (refers to: urinary occult blood positive; human; 60 mg single dose, fasted): 16.7%
COc1ccc(OC)c(/C(=C\c2ccc(O)c(O)c2)C(=O)NCCc2ccc(O)cc2)c1 — formation from FLZ (mouse liver S9; concentration not given, 30 min, with: FLZ): not detected
COc1ccc2cc(-c3ccc(-c4ccc(C)cn4)nc3)oc2c1 — fluorescence lifetime (TCSPC; MeOH): 2.18 ns
CCCC[C@H](NC(=O)CNC(=O)CNC(=O)CN1CCN(CC(=O)O)CCN(CC(=O)O)CCN(CC(=O)O)CC1)C(=O)N[C@H]1CC(=O)NCCCC[C@@H](C(N)=O)NC(=O)[C@H](Cc2c[nH]c3ccccc23)NC(=O)[C@H](CCCNC(=N)N)NC(=O)[C@@H](Cc2ccccc2)NC(=O)[C@H](Cc2c[nH]cn2)NC1=O [gallium-67 labelled] — tumour to tissue uptake ratio (C57 mice, female, B16/F1 melanoma, tumour over muscle; intravenous, 0.037 MBq, 4 h): 78.3
CC[C@H](C)[C@H](NC(=O)[C@@H]1CCCN1C(=O)CNC(=O)[C@H](Cc1ccccc1)NC(=O)[C@H](CC(N)=O)NC(=O)[C@H](CC(N)=O)NC(=O)[C@H](CO)NC(=O)[C@H](CO)NC(=O)[C@H](Cc1c[nH]cn1)NC(=O)[C@@H](NC(=O)[C@H](CC(C)C)NC(=O)[C@H](Cc1ccccc1)NC(=O)[C@H](CC(N)=O)NC(=O)[C@H](C)NC(=O)[C@H](CC(C)C)NC(=O)[C@H](CCCNC(=N)N)NC(=O)[C@H](CCC(N)=O)NC(=O)[C@@H](NC(=O)[C@H](C)NC(=O)[C@@H]1CSSC[C@H](NC(=O)[C@@H](N)CCCCN)C(=O)N[C@@H](CC(N)=O)C(=O)N[C@@H]([C@@H](C)O)C(=O)N[C@@H](C)C(=O)N[C@@H]([C@@H](C)O)C(=O)N1)[C@@H](C)O)C(C)C)C(=O)N[C@@H](CC(C)C)C(=O)N[C@@H](CO)C(=O)N[C@@H](CO)C(=O)N[C@H](C(=O)N[C@@H](CC(N)=O)C(=O)N[C@H](C(=O)NCC(=O)N[C@@H](CO)C(=O)N[C@@H](CC(N)=O)C(=O)N[C@H](C(=O)N[C@@H](Cc1ccc(O)cc1)C(N)=O)[C@@H](C)O)C(C)C)[C@@H](C)O — collision cross section (ion mobility mass spectrometry; nitrogen drift gas; dimer ion charge +4): 880 ± 2.3 Å²
C[C@H]1NSc2nc(=O)c3[nH]ccc3n2Cc2ccc(Cl)cc21 — exposure ratio (Sprague-Dawley rat, male, plasma; oral, 125 mg/kg/day; reference: rat over human 15 mg): 36
COc1cc2c(cc1OC)CN(CCCCn1ccc3cc(OCC[18F])ccc31)C2 — brain uptake (male ICR mice; intravenous, 2 min post-injection): 3.76 ± 0.28 %ID/g
O=c1nc(NO)ccn1[C@@H]1O[C@H](CO)[C@@H](O)[C@H]1O — mRNA level (RT-PCR, refers to: CYP3A9; normal rat, liver; oral, 80 mg/kg twice daily, 5 days; reference: untreated rats): < 0.1 fold
[2H]C([2H])([2H])NC(=O)c1ccc(N2C(=S)N(c3ccc(C#N)c(C(F)(F)F)c3)C(=O)C2(C)C)cc1F — Vd/F (male human, plasma; oral, 40 mg, single dose, fasted): 53.8 L
CC(C)[C@H](NC(=O)[C@@H]1CCCN1C(=O)[C@H](CCCNC(=N)N)NC(=O)[C@H](CS)NC(=O)[C@H](Cc1c[nH]c2ccccc12)NC(=O)[C@H](CCCNC(=N)N)NC(=O)[C@@H](Cc1ccccc1)NC(=O)[C@H](Cc1c[nH]cn1)NC(=O)[C@H](CCC(=O)O)NC(=O)[C@H](CS)NC(=O)[C@H](CS)NC(=O)CNC(=O)[C@@H]1CC(=O)N[C@@H](CCCNC(=N)N)C(=O)NCC(=O)N[C@@H](CC(=O)O)C(=O)N[C@H](Cc2ccc(O)cc2)C(=O)N1)C(N)=O [technetium-99m labelled] — tumour-to-tissue ratio (C57 mice B16/F1 melanoma female; iv, 2 h, with: NDP-MSH blockade; reference: tumour over muscle): 5.98
Cc1ccc(OCC(=O)O)cc1 — t1/2 (Sprague-Dawley rat, female, plasma; oral, 10 mg/kg/day of parent drug, day 1, 90-day repeated dosing): 1.43 h
CC12CC(c3ccc(S(C)(=O)=O)cc3)C3=C4CCC(=O)C=C4CCC3C1CCC2(O)C(F)(F)C(F)(F)F (centres unmarked) — AUC (human, plasma; oral, 5 mg, single dose, fasted): 324 ng·h/mL

For quick reference, copied from above:
CC/C=C\C/C=C\C/C=C\C/C=C\C/C=C\CCCCOC(CC)C(=O)O (centres unmarked) — tissue concentration (radioactivity, 14C-labelled; Wistar rat, male, liver; oral, 100 mg/kg, 1 h): 77.7 µg equivalents/g tissue
Cn1c(=O)oc2ccc(-c3ccc(CC(C#N)NC(=O)C4CNCCCO4)c(F)c3)cc21 (centres unmarked) — subjects with TEAE (refers to: urinary occult blood positive; human; 60 mg single dose, fasted): 16.7%
NS(=O)(=O)c1ccc(N2N=C(C(F)(F)F)CC2c2ccc(F)cc2F)cc1 (centres unmarked) — depletion rate (human liver microsomes; 20 µM, 0 to 30 min, pH 7.4): 233 pmol/min/mg
